Published values gathered from unrelated publications.
Protocols differ between the studies behind these lines. Values joined by “and” are separate records of one study, mostly repeats; a detail may differ.
Cell line: HeLa

SMILES	assay	conditions	how to read	quantity	value
CCCCCCc1cccc(C(O)CC(CO)NC(=O)CCCCCCCCCCNC(C)=O)c1 (stereo not shown)	–	1 µM, lipidomics treatment	–	living cells	90% and 96% and 92%
CCCCCCCCCCCC1CC(=O)N[C@@H]([C@@H](C)O)C(=O)N[C@@H](Cc2ccccc2)C(=O)N[C@@H]([C@@H](C)O)C(=O)N[C@H]([C@H](C)O)C(=O)N[C@@H]([C@@H](C)O)C(=O)N[C@@H](Cc2ccccc2)C(=O)O1 (stereo partly shown)	MTT	3.2 mg	–	survival	17.9%
Nc1c2c(nc3sc4c(c13)CCCCC4)CCCC2	cell growth or viability, ATP luminescence	72 h	–	IC50	> 10 µM
C[C@@H](NC(=O)[C@@H](C)NC(=O)CNC(=O)CNC(=O)[C@H](CCCCN)NC(=O)OCC1c2ccccc2-c2ccccc21)C(=O)O	MTT	concentration not given	–	cytotoxicity	not toxic
CC[C@H](C)[C@H](NC(=O)[C@H](C)NC(=O)[C@H](CCCCN)NC(=O)[C@H](CC(C)C)NC(=O)[C@@H](N)Cc1ccccc1)C(=O)N[C@@H](CCCCN)C(=O)N[C@@H](CCCCN)C(=O)N[C@@H](Cc1ccccc1)C(=O)NCC(=O)N[C@@H](CCCCN)C(=O)N[C@@H](CCC(=O)O)C(=O)N[C@@H](Cc1ccccc1)C(=O)N[C@@H](CCCCN)C(=O)N[C@@H](CCCCN)C(=O)N[C@H](C(=O)NCC(=O)N[C@@H](C)C(=O)N[C@@H](CCCCN)C(=O)N[C@@H](CC(C)C)C(=O)N[C@@H](CCCCN)C(=O)O)[C@@H](C)CC	MTT	16 mg/L	reference: untreated	cell growth	90.9% and 93.9%
CCCCCCc1cccc([C@H](O)C[C@H](CO)NC(=O)CCCCCOc2ccc3ccccc3c2)c1	–	1 µM, lipidomics treatment	–	living cells	91% and 84% and 94%
CN(C)c1ccc(-c2nc3ccccc3n2CCCOc2ccccc2)cc1	cell growth or viability, ATP luminescence	72 h	–	IC50	> 5.26 µM
CCCCCCCCCCCC1CC(=O)N[C@H]([C@H](C)O)C(=O)N[C@@H](CN)C(=O)N[C@@H](CO)C(=O)N[C@@H](Cc2ccc(O)cc2)C(=O)O1 (stereo partly shown)	MTT	32 mg	–	survival	87.4%
O[Si](CCCN1CCCCC1)(c1ccc(F)cc1)C1CCCCC1 (stereo not shown)	cell growth or viability	72 h	–	IC50	60.1 µM
CCCCCCCCCCCC1CC(=O)N[C@@H](CO)C(=O)N[C@H](CO)C(=O)N[C@H](C)C(=O)N(C)[C@@H](C(C)C)C(=O)N[C@H](CO)C(=O)N[C@H](CCCCN)C(=O)N[C@H](CO)C(=O)N[C@@H](CCCCN)C(=O)O1 (stereo partly shown)	MTT	32 mg	–	survival	66.2%
Cc1n[nH]c(C)c1CCCOc1cc(OCCCCCCNCCOCCOCCn2cc(CNc3ccc(C(=O)O)cc3)nn2)cc(C(=O)O)c1	cell growth or viability, MTT	100 µM, 72 h	–	viability	98%
CC[C@H](C)[C@H](NC(=O)[C@H](C)NC(=O)[C@H](CCCCN)NC(=O)[C@H](CCCCN)NC(=O)[C@@H](N)CCCNC(=N)N)C(=O)N[C@@H](CCCCN)C(=O)N[C@@H](CC(C)C)C(=O)N[C@H](C(=O)N[C@@H](CCCCN)C(=O)N[C@@H](CCCCN)C(=O)N[C@@H](CC(C)C)C(=O)N[C@H](C(=O)N[C@@H](CCCCN)C(=O)N[C@@H](CCCCN)C(=O)N[C@@H](CC(C)C)C(=O)N[C@@H](CCCCN)C(=O)N[C@@H](CCCCN)C(=O)N[C@@H](C)C(=O)N[C@@H](CC(C)C)C(=O)N[C@@H](CCCCN)C(=O)O)C(C)C)C(C)C	cell growth or viability, MTT	32 µg/mL	–	viability	74.7%
CCCCCCCCCCCCCC(=O)N[C@H]1C(=O)N[C@@H](CN)C(=O)N[C@@H](CO)C(=O)N[C@@H](Cc2ccc(O)cc2)C(=O)O[C@H]1C	MTT	32 mg	–	survival	103%
